{"data": "Experimental data collected from several papers", "note": "Parts stem from different laboratories: compare values within a part only. Substitutions count along the parent as printed."}
{"data": "Block 1", "target": "Sal-like protein 4, full length isoform A (SALL4, Homo sapiens, UniProt Q9UJQ4, residues 1-1053)", "technique": "universal PBM", "form": "double-stranded DNA, one strand shown", "sample": "in vitro", "concentration": "600 nM", "setting": "8-mer, flanks averaged, mean of replicates", "direction": "higher = stronger binding", "UniProt Q9UJQ4, sequence (whole entry, looked up)": "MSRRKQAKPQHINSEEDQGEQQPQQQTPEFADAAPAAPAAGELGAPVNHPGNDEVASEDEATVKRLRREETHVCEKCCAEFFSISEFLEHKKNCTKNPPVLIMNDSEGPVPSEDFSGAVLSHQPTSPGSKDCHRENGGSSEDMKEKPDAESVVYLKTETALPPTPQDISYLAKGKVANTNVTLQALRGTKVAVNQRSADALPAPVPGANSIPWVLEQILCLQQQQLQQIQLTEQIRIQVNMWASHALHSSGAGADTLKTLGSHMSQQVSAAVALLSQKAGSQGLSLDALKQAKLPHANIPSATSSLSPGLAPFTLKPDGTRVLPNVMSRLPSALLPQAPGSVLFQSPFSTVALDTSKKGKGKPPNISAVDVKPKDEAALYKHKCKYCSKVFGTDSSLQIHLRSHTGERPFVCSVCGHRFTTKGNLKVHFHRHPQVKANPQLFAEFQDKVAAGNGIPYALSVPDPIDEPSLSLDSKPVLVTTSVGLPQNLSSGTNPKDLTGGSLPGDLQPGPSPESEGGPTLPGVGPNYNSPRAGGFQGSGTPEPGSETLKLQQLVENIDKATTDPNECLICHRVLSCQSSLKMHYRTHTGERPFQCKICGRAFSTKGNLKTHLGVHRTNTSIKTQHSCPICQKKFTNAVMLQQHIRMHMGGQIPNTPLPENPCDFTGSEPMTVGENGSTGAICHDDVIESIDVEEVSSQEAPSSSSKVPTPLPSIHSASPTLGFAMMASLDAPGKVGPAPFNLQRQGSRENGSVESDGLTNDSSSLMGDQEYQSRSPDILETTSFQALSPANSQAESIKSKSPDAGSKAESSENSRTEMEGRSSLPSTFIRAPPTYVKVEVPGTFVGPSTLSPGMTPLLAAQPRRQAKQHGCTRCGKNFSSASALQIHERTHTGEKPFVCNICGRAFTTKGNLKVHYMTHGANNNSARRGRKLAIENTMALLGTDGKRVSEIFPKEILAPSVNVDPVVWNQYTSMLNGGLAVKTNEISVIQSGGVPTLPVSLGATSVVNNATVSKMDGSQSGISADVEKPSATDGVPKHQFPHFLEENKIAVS"}
{"Sequence": "CGGAAACG", "E-score": -0.218}
{"Sequence": "AATGGATG", "E-score": 0.147}
{"Sequence": "AACCAGCA", "E-score": 0.00819}
{"Sequence": "ACTTATCC", "E-score": 0.105}
{"Sequence": "AGTCTTCA", "E-score": 0.0209}
{"Sequence": "CTGTTTGC", "E-score": 0.0201}
{"Sequence": "TCGCAAGA", "E-score": -0.0762}
{"Sequence": "TACTTCGA", "E-score": 0.207}
{"Sequence": "AGTGTTAA", "E-score": 0.238}
{"Sequence": "CAATTTCG", "E-score": 0.0752}
{"Sequence": "GCATACCA", "E-score": -0.113}
{"Sequence": "AACGGAAT", "E-score": 0.132}
{"Sequence": "CATGGGGC", "E-score": -0.279}
{"Sequence": "CCGCTTAA", "E-score": -0.0814}
{"Sequence": "GTGGTGGA", "E-score": -0.0828}
{"Sequence": "TAAAAGTA", "E-score": 0.294}
{"Sequence": "CCACGATA", "E-score": 0.168}
{"Sequence": "CTGATGTC", "E-score": 0.0106}
{"Sequence": "AGGCTGTC", "E-score": -0.226}
{"Sequence": "ACAGACAG", "E-score": 0.00782}
{"Sequence": "AGGAGACC", "E-score": -0.267}
{"data": "Block 2", "target": "Interferon regulatory factor 5, full length, phosphomimetic (IRF5, Homo sapiens, UniProt Q13568-2, residues 1-514, K96S/S451D/S453D/S456D/S462D)", "technique": "protein-binding microarray", "form": "double-stranded DNA, one strand shown", "sample": "in vitro", "concentration": "250 nM", "setting": "60-bp whole probe", "with": "salmon DNA 0.4 mg/ml", "relative to": "random background probes", "direction": "higher = stronger binding", "constant ends, left off below": "GCCTAGCAC … GTCTTGATTCGCTTGACGCTGCTG"}
{"Sequence": "TCATCTTCAGCACTCGGACTGTGCTAG", "log fluorescence [z-score]": 0.307}
{"Sequence": "TTAGGTATCCTACTGCTGTAGTGCTAG", "log fluorescence [z-score]": -0.277}
{"Sequence": "CACGGTTTCGGTTCCGGGACGTGCTAG", "log fluorescence [z-score]": 9.66}
{"Sequence": "GACGGTTTCGGGACTGCGGACGTGCTA", "log fluorescence [z-score]": 5.13}
{"Sequence": "TCACATTTTGGTTTTCTACTGTGCTAG", "log fluorescence [z-score]": 1.58}
{"Sequence": "CGCTCTGTGCTCTTTGGGCTGTGCTAG", "log fluorescence [z-score]": -0.474}
{"Sequence": "TTAGGTATCCTTTTCCTTTCGTGCTAG", "log fluorescence [z-score]": 1.71}
{"Sequence": "TACGGTCTCGGACTGGGGACGTGCTAG", "log fluorescence [z-score]": -0.0955}
{"Sequence": "TCACTTTCCACTTTCTTACTGTGCTAG", "log fluorescence [z-score]": 3.02}
{"Sequence": "GACGGGCTCGGTATCGGGACGTGCTAG", "log fluorescence [z-score]": 0.366}
{"Sequence": "CTCTACATGGGTATAGAGTAGTGCTAG", "log fluorescence [z-score]": -0.0214}
{"Sequence": "TTAGGTATCGTTTTCCTTTAGTGCTAG", "log fluorescence [z-score]": 4.15}
{"Sequence": "GACGATTTCAGATCCGAGACGTGCTAG", "log fluorescence [z-score]": 0.319}
{"Sequence": "GACGGTATCGGTTTCGGTACGTGCTAG", "log fluorescence [z-score]": 10.2}
{"Sequence": "ATTTTTTTCTAAGTAAACCCGTGCTAG", "log fluorescence [z-score]": 1}
{"Sequence": "TACTTTCTTTTTTTCTTTTAGTGCTAG", "log fluorescence [z-score]": 6.08}
{"Sequence": "TTAGGTTTCGGGTTTCGTTTAGTGCTA", "log fluorescence [z-score]": 8.99}
{"Sequence": "GTAGGTATCGGTTTCGGTTAGTGCTAG", "log fluorescence [z-score]": 11}
{"Sequence": "TCACCTCTCCTCTCAGGAACTGTGCTA", "log fluorescence [z-score]": 0.0128}
{"Sequence": "TTAGATATCCTTATCCTTTAGTGCTAG", "log fluorescence [z-score]": 0.234}
{"Sequence": "TCAGCTTTGCAGATAAAACTGTGCTAG", "log fluorescence [z-score]": 0.268}
{"Sequence": "TTAAATATCGGGACTGGATTAGTGCTA", "log fluorescence [z-score]": 1.65}
{"Sequence": "TTAGCTATCGGGACTGGATTAGTGCTA", "log fluorescence [z-score]": 2.02}
{"Sequence": "TCAGTTTTTGCTTTCCTACTGTGCTAG", "log fluorescence [z-score]": 1.9}
{"Sequence": "GACGGACTGGGGTTTCGGGGCGTGCTA", "log fluorescence [z-score]": 0.63}
{"data": "Block 3", "target": "RNA binding protein fox-1 homolog 2, RRM domain, GST-SBP tag (RBFOX2, Homo sapiens, UniProt O43251-10, residues 100-194)", "technique": "RNA Bind-n-Seq", "form": "RNA", "sample": "in vitro", "concentration": "365 nM", "setting": "natural RNA segment, single round, ends assumed", "relative to": "no-protein control", "direction": "higher = stronger binding", "constant ends, left off below": "GGGAGUUCUACAGUCCGACGAUC … UGGAAUUCUCGGGUGCCAA", "Residues (chain)": "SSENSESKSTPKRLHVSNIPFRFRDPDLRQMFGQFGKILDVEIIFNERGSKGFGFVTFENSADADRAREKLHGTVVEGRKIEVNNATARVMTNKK"}
{"Sequence": "CGUUCCCAAACUCCCCCAGCCCUGGACCCCAGCAGAUGAGGAAACGGCCCCAUUUACUGACCCCGCCCCCUUUUCGAGGUUAUGCUCACCUGGUCAGCUCCUCACGUAAU", "RBNS enrichment (R)": 0.397}
{"Sequence": "GUUUGGGCUUGAAGUUACAUUAAAGUGAAGUUAUUUGAAAGAAAGAAAACCUCAUCAUUUCUAAGGAUGACUUAAUUACUGUGCCUUUUCCUUUCUUUUUACACAUCCUA", "RBNS enrichment (R)": 0.402}
{"Sequence": "CAGCAAAAACAGUGCCUCUUUGUGCACAAUCCUUUUAAAGUAGCAUUCUUACUUGUUAGAAAUGUAGAAUGAACUUUGUUUGUAAUCCUUAAAUUAAAAUGUGGUAAGUA", "RBNS enrichment (R)": 0.937}
{"Sequence": "GCCACAGGGAUGAGGUGAAGCCAUCUCUGUCCUUCCUGGAAUACCGGAGAUCCAGGGGCCUCCAGCUGCUCCUUUCUUCUGUGUCCUGUUAUUUGGGUCCCAGAUGGAGC", "RBNS enrichment (R)": 0.274}
{"Sequence": "UGAGAGAAGAGAGACCGAGGGGGGAGAAAGAGCUCUUCAUUUGGAGCAGUCCUUCAAUCUCAGAACCCCAGGAGGCCCCACAGGAGUUGCCCUCCUCCUUCAGCCUGCCC", "RBNS enrichment (R)": 0.51}
{"Sequence": "UUCUCUGAAGUUGCCUAGAGCACCAUCACAGCUAGGAAGCUUCCAUCAUGAAUUACCUUAUUUCCAAAAGCAAGUACUCAAAUAAUUGUCUCAAGAGAGGAAGGACAAAA", "RBNS enrichment (R)": 0.455}
{"Sequence": "AAAUAUUGUACCUUGUUUAGCCUACCUCACAGGGCUGUUGUGAGGAGUGUAGUGAAACGGACUCUCAUGUGAACUGGGUGGUUUCCACUAAGAAUGGUUGUGUUUGGAUA", "RBNS enrichment (R)": 2.48}
{"Sequence": "GGCAGGUUCCCACCUCGCAAGCAAUUGGAAACAAAACUUUUGGGGAGUUUUAUUUUGCAUUAGGGUGUGUUUUAUGUUAAGCAAAACAUACUUUAGAAACAAAUGAAAAA", "RBNS enrichment (R)": 0.439}
{"Sequence": "GUACAUUUAAUGUACACUUUGCGGUAGAUUAAGGAAUAUACUGCAUAUUUCUUUUUUUAAACUCGGGAUAUUGAACUUCAGAAAACAAAUAUUAGCACAAAACACUAAAA", "RBNS enrichment (R)": 0.78}
{"Sequence": "CAUUUCUAUUUCUCCUCCAUGGGAGAAAAUAGAUAAGAGUAGAAACUGCAGGGAAAAUUAUUUGCAUAACAAUUCCUCUACUAACAAUCAGCUCCUUCCUGGAGACUGCC", "RBNS enrichment (R)": 0.328}
{"Sequence": "ACUUUGAGAGAAUUUCCAAUAUAAUAUUAGACAUAAUGAUAAUUUUUUCCAUACUCAGAAUGAAAAACUGGAUAUUACGUUUUUGUUUUGGGGUUUUUUUGUACAAAUUU", "RBNS enrichment (R)": 1.58}
{"Sequence": "CUGUGCCUUGUGUUACUUAAUCAUACAGUAAGCUGACCUGGAAAUGAAUGAAACUAUUACUCCUAAGAAUUACAUUGUAUAGCCCCACAGAUUAAAUUUAAUUAAUUAAU", "RBNS enrichment (R)": 0.65}
{"data": "Block 4", "target": "CCNB3, cyclin fold, Cln2 fusion (human)", "technique": "yeast growth competition, sequencing", "sample": "yeast", "setting": "weak parent motif", "relative to": "not given", "direction": "higher = stronger binding", "starting sequence": "FZR1 docking peptide (human); QDYERRLLRQIVI; partner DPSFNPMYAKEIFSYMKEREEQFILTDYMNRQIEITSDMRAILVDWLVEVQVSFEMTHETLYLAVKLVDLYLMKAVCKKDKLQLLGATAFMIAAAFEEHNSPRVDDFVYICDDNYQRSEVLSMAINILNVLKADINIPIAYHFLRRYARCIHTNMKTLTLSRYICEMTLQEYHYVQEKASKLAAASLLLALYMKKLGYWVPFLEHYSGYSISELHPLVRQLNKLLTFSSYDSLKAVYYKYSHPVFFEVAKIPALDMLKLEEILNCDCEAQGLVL"}
{"Change": "I11A", "normalised enrichment score": 0.453}
{"Change": "E4A", "normalised enrichment score": 0.259}
{"Change": "L7A", "normalised enrichment score": 0.508}
{"Change": "R5A", "normalised enrichment score": 0.467}
{"Change": "R5K L8F", "normalised enrichment score": 0.207}
{"Change": "Q10A", "normalised enrichment score": 0.511}
{"Change": "V12A", "normalised enrichment score": 0.477}
{"data": "Block 5", "target": "ABI1, truncated, D143A, DHFR fusion (Arabidopsis thaliana)", "technique": "DHFR PCA, deep sequencing", "sample": "yeast", "setting": "methotrexate growth selection, single substitutions", "with": "(+)-ABA 58 µM", "relative to": "wild-type fitted maximum", "direction": "higher = stronger binding", "starting sequence": "PYL1, truncated, DHFR fusion (Arabidopsis thaliana); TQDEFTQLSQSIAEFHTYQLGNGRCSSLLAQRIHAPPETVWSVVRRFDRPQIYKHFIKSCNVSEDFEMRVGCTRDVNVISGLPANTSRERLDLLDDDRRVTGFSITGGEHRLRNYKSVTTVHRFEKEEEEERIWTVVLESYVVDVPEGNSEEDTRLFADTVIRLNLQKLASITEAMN; partner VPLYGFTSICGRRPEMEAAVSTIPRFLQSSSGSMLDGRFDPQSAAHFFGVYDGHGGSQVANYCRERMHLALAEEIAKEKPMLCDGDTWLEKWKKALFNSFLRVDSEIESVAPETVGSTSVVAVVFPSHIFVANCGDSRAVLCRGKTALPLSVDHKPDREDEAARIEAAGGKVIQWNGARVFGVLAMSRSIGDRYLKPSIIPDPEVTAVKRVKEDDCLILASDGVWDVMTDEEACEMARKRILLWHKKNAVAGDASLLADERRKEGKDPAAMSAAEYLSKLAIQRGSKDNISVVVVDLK"}
{"Change": "R69S", "relative binding score": "82.2%"}
{"Change": "R88D", "relative binding score": "27.8%"}
{"Change": "L112K", "relative binding score": "13.5%"}
{"Change": "E128L", "relative binding score": "89.8%"}
{"Change": "D159S", "relative binding score": "64%"}
{"Change": "T135Q", "relative binding score": "-2.81%"}
{"Change": "L28S", "relative binding score": "22.9%"}
{"Change": "P37R", "relative binding score": "11.7%"}
{"Change": "T101W", "relative binding score": "13.3%"}
{"Change": "E147P", "relative binding score": "83.3%"}
{"Change": "R123P", "relative binding score": "86.9%"}
{"Change": "E131P", "relative binding score": "96.1%"}
{"Change": "L138K", "relative binding score": "-20.3%"}
{"Change": "S104H", "relative binding score": "37.3%"}
{"data": "Other studies, line by line"}
{"Substance": "PhoQ, residues 284 288 289 292 302 303 HSYLQF", "target": "PhoP, residues 12 14 15 18 19 NQFFI (Escherichia coli, UniProt P23836)", "test": "Sort-seq, item: YFP reporter", "test system": "E. coli", "conditions": "PhoQ-PhoP variant library, with: 10 µM Mg2+", "scale": "relative to: high Mg2+ state, higher = stronger signaling", "measurement": "fold induction", "value": 18.7}
{"note": "Some of these lines once more (block 4):"}
{"Change": "R5K L8F", "normalised enrichment score": 0.207}
{"Change": "L7A", "normalised enrichment score": 0.508}
{"Change": "Q10A", "normalised enrichment score": 0.511}
{"Change": "R5A", "normalised enrichment score": 0.467}
{"Change": "V12A", "normalised enrichment score": 0.477}
{"Change": "I11A", "normalised enrichment score": 0.453}
{"Change": "E4A", "normalised enrichment score": 0.259}
